Measurements gathered from unrelated publications.
Protocols differ between the studies behind these lines. Numbers after ± are the reported error.
ADRB1: Beta-1 adrenergic receptor (ADRB1, Homo sapiens, UniProt P08588)
UniProt P08588, sequence (whole entry, looked up): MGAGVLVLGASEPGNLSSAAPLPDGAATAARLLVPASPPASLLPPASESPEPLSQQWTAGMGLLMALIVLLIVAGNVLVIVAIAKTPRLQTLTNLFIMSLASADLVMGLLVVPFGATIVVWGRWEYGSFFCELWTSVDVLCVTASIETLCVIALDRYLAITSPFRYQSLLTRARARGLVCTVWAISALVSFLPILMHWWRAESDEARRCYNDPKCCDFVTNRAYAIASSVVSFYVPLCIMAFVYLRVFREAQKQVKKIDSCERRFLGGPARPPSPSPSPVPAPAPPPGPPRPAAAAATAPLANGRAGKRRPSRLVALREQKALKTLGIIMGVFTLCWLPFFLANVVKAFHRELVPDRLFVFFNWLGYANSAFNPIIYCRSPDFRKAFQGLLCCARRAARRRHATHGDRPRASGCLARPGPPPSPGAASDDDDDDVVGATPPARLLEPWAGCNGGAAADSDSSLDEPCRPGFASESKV
UniProt Q9UM73, sequence (whole entry, looked up): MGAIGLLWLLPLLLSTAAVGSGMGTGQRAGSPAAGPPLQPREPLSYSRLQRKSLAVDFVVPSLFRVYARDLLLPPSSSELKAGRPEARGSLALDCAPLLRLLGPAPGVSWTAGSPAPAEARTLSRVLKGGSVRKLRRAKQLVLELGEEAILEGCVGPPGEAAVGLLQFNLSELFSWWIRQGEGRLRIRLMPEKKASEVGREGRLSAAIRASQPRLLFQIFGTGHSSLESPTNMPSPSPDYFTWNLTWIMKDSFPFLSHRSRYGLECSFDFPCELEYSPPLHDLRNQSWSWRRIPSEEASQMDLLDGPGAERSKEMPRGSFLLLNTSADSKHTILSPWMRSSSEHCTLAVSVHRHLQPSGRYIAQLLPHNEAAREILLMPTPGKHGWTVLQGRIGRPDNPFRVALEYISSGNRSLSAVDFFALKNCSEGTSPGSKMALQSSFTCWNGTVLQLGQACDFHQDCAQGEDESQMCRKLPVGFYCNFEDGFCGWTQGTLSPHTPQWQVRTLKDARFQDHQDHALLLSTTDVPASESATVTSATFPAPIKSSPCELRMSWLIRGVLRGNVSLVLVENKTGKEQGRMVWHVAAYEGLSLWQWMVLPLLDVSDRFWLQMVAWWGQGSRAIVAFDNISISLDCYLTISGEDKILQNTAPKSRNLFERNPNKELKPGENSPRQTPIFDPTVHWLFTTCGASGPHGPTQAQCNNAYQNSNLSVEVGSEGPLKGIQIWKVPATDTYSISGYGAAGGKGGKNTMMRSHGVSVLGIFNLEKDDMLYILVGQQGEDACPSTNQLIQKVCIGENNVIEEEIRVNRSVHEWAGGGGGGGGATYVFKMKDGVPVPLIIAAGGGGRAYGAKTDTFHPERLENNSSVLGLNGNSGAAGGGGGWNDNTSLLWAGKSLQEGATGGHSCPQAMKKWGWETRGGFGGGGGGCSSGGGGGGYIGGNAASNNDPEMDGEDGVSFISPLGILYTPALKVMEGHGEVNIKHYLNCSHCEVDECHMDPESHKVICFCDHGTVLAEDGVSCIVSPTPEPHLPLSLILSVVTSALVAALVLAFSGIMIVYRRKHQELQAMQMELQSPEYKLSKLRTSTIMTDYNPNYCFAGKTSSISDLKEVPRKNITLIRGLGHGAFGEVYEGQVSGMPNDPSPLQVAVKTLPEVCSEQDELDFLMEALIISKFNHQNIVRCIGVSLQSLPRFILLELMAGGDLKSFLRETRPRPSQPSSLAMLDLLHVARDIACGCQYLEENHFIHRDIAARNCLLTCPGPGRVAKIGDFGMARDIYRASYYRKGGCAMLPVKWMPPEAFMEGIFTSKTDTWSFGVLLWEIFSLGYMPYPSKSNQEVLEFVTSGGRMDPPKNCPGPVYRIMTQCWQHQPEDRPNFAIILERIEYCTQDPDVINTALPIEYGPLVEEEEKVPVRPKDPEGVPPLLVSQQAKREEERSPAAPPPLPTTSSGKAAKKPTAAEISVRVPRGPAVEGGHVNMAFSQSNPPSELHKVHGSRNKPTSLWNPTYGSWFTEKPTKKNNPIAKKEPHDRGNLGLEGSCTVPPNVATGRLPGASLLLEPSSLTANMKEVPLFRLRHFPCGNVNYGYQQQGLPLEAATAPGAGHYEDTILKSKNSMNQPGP
UniProt P31749, sequence (whole entry, looked up): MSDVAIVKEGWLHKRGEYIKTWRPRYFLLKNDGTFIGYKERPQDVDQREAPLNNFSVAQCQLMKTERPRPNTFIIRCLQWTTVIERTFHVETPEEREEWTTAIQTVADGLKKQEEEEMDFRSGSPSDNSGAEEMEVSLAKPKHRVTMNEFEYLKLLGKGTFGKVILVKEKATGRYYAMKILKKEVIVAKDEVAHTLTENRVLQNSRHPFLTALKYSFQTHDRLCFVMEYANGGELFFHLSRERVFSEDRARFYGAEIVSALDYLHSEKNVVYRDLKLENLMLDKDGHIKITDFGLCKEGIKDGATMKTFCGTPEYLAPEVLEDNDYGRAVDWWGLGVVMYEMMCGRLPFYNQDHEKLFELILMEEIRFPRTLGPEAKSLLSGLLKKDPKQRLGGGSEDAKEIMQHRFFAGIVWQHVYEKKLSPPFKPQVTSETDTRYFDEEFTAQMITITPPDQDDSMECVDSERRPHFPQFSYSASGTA
UniProt P23977, sequence (whole entry, looked up): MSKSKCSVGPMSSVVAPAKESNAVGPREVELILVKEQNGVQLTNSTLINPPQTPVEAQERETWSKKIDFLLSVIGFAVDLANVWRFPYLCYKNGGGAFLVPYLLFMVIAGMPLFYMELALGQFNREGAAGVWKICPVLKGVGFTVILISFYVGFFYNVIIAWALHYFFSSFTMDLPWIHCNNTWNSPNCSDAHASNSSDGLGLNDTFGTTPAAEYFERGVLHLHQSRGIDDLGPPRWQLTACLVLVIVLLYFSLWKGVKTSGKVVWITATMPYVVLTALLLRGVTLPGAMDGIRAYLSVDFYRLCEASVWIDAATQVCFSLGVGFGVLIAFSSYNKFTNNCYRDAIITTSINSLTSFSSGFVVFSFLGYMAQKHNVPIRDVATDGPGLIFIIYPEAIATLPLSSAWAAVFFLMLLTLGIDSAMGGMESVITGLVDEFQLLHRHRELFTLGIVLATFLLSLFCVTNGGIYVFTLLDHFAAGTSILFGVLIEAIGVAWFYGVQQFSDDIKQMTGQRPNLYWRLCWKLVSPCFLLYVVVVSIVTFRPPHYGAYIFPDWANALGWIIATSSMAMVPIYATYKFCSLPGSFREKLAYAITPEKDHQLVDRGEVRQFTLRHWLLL
UniProt P15823, sequence (whole entry, looked up): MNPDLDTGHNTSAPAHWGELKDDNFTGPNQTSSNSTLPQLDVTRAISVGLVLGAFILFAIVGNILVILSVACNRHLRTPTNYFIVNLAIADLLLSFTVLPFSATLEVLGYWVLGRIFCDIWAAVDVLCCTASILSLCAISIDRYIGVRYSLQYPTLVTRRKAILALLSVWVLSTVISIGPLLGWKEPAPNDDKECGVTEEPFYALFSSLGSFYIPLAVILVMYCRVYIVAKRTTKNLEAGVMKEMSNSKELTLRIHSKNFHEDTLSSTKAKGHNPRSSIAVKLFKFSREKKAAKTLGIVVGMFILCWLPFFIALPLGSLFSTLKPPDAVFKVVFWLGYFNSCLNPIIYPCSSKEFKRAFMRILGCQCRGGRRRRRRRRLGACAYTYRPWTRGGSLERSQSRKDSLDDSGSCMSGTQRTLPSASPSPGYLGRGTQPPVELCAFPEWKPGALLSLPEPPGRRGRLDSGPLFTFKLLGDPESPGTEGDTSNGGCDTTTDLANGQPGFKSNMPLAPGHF
UniProt P42338, sequence (whole entry, looked up): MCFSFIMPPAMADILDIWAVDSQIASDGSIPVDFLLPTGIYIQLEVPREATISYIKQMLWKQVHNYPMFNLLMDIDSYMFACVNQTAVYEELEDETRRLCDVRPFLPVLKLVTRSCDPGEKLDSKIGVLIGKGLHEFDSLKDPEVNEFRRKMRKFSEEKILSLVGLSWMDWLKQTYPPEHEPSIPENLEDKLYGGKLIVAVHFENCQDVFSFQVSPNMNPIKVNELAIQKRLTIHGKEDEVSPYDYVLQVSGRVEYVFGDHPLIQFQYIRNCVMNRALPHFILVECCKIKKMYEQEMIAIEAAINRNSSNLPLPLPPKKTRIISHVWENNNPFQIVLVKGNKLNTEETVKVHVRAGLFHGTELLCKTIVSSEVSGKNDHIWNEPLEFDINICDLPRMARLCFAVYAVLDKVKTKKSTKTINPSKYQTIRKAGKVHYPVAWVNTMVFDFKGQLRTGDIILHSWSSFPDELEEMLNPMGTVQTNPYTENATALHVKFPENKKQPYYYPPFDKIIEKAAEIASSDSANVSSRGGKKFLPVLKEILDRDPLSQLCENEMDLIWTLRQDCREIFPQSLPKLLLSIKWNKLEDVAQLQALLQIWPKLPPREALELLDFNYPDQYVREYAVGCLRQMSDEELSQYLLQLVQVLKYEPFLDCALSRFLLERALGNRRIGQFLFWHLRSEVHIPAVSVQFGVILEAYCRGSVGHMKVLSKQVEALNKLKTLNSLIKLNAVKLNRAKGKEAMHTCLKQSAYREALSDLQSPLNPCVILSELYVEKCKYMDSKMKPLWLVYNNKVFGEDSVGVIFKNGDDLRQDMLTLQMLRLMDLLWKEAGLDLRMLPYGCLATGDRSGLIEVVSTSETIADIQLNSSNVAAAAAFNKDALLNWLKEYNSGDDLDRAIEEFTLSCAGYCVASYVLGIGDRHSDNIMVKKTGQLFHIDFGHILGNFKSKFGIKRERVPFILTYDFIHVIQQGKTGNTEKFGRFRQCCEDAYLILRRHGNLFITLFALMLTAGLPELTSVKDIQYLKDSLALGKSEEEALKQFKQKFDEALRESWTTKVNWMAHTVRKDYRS

Cc1cc(-c2ccc3ccccc3c2)nnc1NCCN1CCN(C)CC1  inhibition (Slc6a3 (Rattus norvegicus, UniProt P23977); monoamine uptake, inhibitor; rat synaptosomes; 10000 nM): 60%
Cc1ccccc1CCc1nnc([C@H]2OCC[C@H]2Cn2ccnc2)o1  inhibition (Cholinesterase (BCHE, Homo sapiens, UniProt P06276); enzyme activity, inhibitor, Ellman; 10 µM): 37.8%
C[C@H](NCc1ccc(-c2ccc(C(F)(F)F)cc2)cc1)C(N)=O  inhibition (STK11 (Homo sapiens, UniProt Q15831); cell-free assay, competition with immobilised ligand; 1 µM): 0%
Cc1ccc2c(n1)c(-c1cccc(S(C)(=O)=O)c1)c(C)n2C/C(F)=C/CN  inhibition (Adra1b (Rattus norvegicus, UniProt P15823); ligand displacement, radioligand; 10 µM): 17%
CCC1CC(c2ccc(C(=O)O)cc2C)=NN1c1ccc(C#N)c(Cl)c1 (stereo not shown)  inhibition (NSD2 (Homo sapiens, UniProt O96028); enzyme activity, inhibitor; 10 µM): 32%
C/C(=N\OCCCN1CCCCC1)c1ccc(C(F)(F)F)cc1  inhibition (ADRB1; antagonist, cAMP; 10 µM): 5.77%
CN(/N=C/c1ccccc1C(=O)O)c1nc(-c2ccccc2Cl)cs1  inhibition (PIK3CB (Homo sapiens, UniProt P42338); kinase activity; 1 µM): 10.2%
CCc1nnc(-c2c(OC)cc(-c3cnc4cc(-c5cnn(C)c5)ccn34)cc2OC)o1  inhibition (ADRB1; specific binding, agonist, radioligand binding; 10 µM; reference: control specific binding): -2%
COc1ccc(F)cc1S(=O)(=O)Nc1cnc2c(c1)C(=O)NCCO2  inhibition (sodium channel site 2; radioligand binding; 10 µM): 10%
CCOC(=O)[C@](CC)(CCCSCCOCCOCCNC(=O)c1ccc(-c2c3ccc(=N)c(S(=O)(=O)O)c-3oc3c(S(=O)(=O)O)c(N)ccc23)c(C(=O)O)c1)NC(=O)c1ccc(C2CC2)c(Cc2ccc(F)cc2)n1  inhibition (L-type calcium channel diltiazem site; specific binding, antagonist radioligand binding; 10 µM): 6%
COc1ccccc1N1CCN(CCCCN2CCCc3ccccc3C2=O)CC1  inhibition (HTR1D (Homo sapiens, UniProt P28221); radioligand binding; concentration not given, added: [3H]5-CT): 91.5%
CC(C)(C)C(=O)OCOP(=O)(OCOC(=O)C(C)(C)C)C1CCCN(O)C1=O (stereo not shown)  GI50 (MCF7): 0.338 µM
O=C1NC2(CC2)COc2ncc(F)cc2[C@H]2COCCN2c2ccn3ncc1c3n2  pancreatic amylase activity (Sprague-Dawley rat, female, serum; oral, 20 mg/kg/day, 4 weeks daily, end of treatment): 1120 ± 369 U/L
N[C@H](C(=O)N1CCCC1)C1CCN(c2nccc3c(-c4ncc(Cl)cc4Cl)cccc23)CC1  inhibition (GABA-A receptor benzodiazepine site; binding, radioligand binding; 10 µM): -13%
COc1ccccc1-c1n[nH]c2nc(NC3CCN(C(=O)Cc4ccc(F)cc4F)CC3)ncc12  relative abundance (bead binding, competition bead pull-down, item: LINJ.33.0600; Leishmania donovani axenic amastigote extract; 10 µM; reference: vehicle): 1.12
CC(C)[C@H]1NC(=O)C[C@H]2/C=C/CCSSC[C@@H](NC1=O)C(=O)N[C@H](Cc1cccc3ccccc13)C(=O)NCC(=O)O2  inhibition (ALK (Homo sapiens, UniProt Q9UM73); enzyme activity, inhibitor; 10 µM): 2.1%
CN(C)[C@H]1C[C@@]23CC[C@@]4(O2)C(=CC[C@]2(C)[C@@H](c5ccc6ccncc6c5)CC[C@H]24)C=C3[C@@H](O)[C@@H]1O  inhibition (CDK20 (Homo sapiens, UniProt Q8IZL9); ATP probe labelling, inhibitor, KiNativ profiling; 0.1 µM): 2.7%
CS(C)(=O)=Nc1ccc(-c2ccc(-c3nc4cc(O[C@@H]5CO[C@H]6[C@@H]5OC[C@H]6O)[nH]c4cc3F)cc2)cc1  inhibition (FRK (Homo sapiens, UniProt P42685); enzyme activity, inhibitor; 10 µM): -12%
O=C(CN1CN(c2ccccc2)C2(CCN(C(=O)c3cnc4[nH]ncc4c3)CC2)C1=O)NCC(F)(F)F  inhibition (SYK (Homo sapiens, UniProt P43405); inhibitor; concentration not given): < 50%
O=C(O)c1ccccc1/C=N/Nc1nc(-c2ccccc2Cl)cs1  inhibition (AKT1 (Homo sapiens, UniProt P31749); kinase activity; 1 µM): 1.03%
N#Cc1ccc(N2N=C3c4ccc(C(=O)O)cc4CCC3C2C2CCCC2)cc1Cl (stereo not shown)  inhibition (EZH2 (Homo sapiens, UniProt Q15910); enzyme activity, inhibitor; 10 µM): 12%
C=CC(=O)Nc1cc(-c2nn(C3CCC(N4CCN(C(C)=O)CC4)CC3)c3ncnc(N)c23)ccc1Oc1ccccc1 (stereo not shown)  inhibition (WEE1 (Homo sapiens, UniProt P30291); inhibitor, KiNativ profiling; biochemical; 2 µM): 3.6%

A few entries again:
C/C(=N\OCCCN1CCCCC1)c1ccc(C(F)(F)F)cc1  inhibition (ADRB1; antagonist, cAMP; 10 µM): 5.77%
COc1ccccc1-c1n[nH]c2nc(NC3CCN(C(=O)Cc4ccc(F)cc4F)CC3)ncc12  relative abundance (bead binding, competition bead pull-down, item: LINJ.33.0600; Leishmania donovani axenic amastigote extract; 10 µM; reference: vehicle): 1.12
CC(C)[C@H]1NC(=O)C[C@H]2/C=C/CCSSC[C@@H](NC1=O)C(=O)N[C@H](Cc1cccc3ccccc13)C(=O)NCC(=O)O2  inhibition (ALK (Homo sapiens, UniProt Q9UM73); enzyme activity, inhibitor; 10 µM): 2.1%
